Published values from different studies.
A part holds a random share of what one study measured. Substitutions count along the parent as printed.

Set 1 — technique: RNA Bind-n-Seq; form: RNA; matrix: in vitro; concentration: 200 nM; setting: whole 134-nt RNA, ends assumed; together with: 150 mM KCl; relative to: input library; reading: higher = stronger binding
Target: Ras GTPase-activating protein-binding protein 1, full length (G3BP1, Homo sapiens, UniProt Q13283)
Sequence of UniProt Q13283 (whole entry, looked up): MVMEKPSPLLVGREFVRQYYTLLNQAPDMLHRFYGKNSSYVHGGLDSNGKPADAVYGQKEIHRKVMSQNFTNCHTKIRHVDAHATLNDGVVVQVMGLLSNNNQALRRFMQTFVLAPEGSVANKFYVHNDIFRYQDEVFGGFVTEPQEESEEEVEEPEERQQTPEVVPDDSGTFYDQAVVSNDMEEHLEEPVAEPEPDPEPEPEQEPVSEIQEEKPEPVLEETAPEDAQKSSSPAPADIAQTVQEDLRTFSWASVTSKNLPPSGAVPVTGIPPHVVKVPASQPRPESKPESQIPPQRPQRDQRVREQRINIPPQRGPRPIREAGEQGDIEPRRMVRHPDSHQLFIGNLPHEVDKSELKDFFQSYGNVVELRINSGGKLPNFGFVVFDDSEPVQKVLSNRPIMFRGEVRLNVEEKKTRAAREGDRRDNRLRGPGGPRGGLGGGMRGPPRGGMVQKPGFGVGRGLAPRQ
Shared flanks, not repeated: GGGAGUUCUACAGUCCGACGAUC … UGGAAUUCUCGGGUGUCAAGG
Strand | log2 enrichment
CAAGUCCUGUGCUACACAUCGUAUGUACCGAAUCGGGGUUGGGUUGGGGUUGGGGAAAGUAUUAUGUUACGCCGUUCGGAUCUGCACUUC | 0.905
GUCCUGUGCUACACAUCGUAUGUACCGAAUCGGCCCCCCGGGGCCCCCCGGCCCCCCGGAAAGUAUUAUGUUACGCCGUUCGGAUCUGCA | -0.449
UCAAGUCCUGUGCUACACAUCGUAUGUACCGAAUCGGGGAAGGGGAAGGGGAAGGAAAGUAUUAUGUUACGCCGUUCGGAUCUGCACUUC | 0.135
CCUGUGCUACACAUCGUAUGUACCGAAUCGGGGAAAAAAAGGGGUGGGGAAAAAAAGGGGAAAGUAUUAUGUUACGCCGUUCGGAUCUGC | 0.23
UCCUGUGCUACACAUCGUAUGUACCGAAUCGGGAAAAAAGGAAAAAAGGGGAAAAAAGGAAAGUAUUAUGUUACGCCGUUCGGAUCUGCA | -0.738
AAGUCCUGUGCUACACAUCGUAUGUACCGAAUCGGGAGGGUUUUUUUGGGUUUGGGAAAGUAUUAUGUUACGCCGUUCGGAUCUGCACUU | 0.0739
CUGUGCUACACAUCGUAUGUACCGAAUCGGCCCCCCCGGGGCCCCCCCGGGGCCCCCCCGGAAAGUAUUAUGUUACGCCGUUCGGAUCUG | -0.504

Set 2 — technique: universal PBM; form: double-stranded DNA, one strand shown; matrix: in vitro; concentration: 600 nM; reading: higher = stronger binding
Target: Sal-like protein 4, full length isoform A (SALL4, Homo sapiens, UniProt Q9UJQ4, residues 1-1053)
Sequence of UniProt Q9UJQ4 (whole entry, looked up): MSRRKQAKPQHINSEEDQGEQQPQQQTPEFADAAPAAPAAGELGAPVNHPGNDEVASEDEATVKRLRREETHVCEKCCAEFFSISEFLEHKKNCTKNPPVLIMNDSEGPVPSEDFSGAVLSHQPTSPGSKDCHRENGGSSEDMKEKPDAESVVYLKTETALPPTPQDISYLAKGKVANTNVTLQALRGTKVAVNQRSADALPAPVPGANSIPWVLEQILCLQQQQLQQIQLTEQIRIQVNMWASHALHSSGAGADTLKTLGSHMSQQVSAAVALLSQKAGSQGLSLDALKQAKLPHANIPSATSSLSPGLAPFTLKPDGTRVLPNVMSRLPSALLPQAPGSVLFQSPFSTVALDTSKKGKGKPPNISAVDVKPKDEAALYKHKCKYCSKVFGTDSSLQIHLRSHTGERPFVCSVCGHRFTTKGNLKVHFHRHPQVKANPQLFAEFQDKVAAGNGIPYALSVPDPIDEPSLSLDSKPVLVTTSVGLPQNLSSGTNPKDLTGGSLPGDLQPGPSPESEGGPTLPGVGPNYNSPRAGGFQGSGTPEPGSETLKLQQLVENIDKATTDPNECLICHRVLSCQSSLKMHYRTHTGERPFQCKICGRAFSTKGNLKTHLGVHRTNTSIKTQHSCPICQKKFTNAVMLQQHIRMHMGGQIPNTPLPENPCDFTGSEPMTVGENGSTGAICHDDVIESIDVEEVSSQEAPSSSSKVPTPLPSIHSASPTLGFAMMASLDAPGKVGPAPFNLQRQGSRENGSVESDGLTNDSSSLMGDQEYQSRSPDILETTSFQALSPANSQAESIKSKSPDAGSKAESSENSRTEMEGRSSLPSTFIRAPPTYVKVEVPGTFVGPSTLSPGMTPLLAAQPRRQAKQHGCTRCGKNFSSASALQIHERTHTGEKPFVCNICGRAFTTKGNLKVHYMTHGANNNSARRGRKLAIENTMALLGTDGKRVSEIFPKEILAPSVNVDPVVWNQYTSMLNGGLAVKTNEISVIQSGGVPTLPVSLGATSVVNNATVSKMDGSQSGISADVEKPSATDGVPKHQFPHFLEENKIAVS
Setting: 8-mer, flanks averaged, mean of replicates
Strand | E-score
ATCTGGCA | 0.0111
AGCAGATG | -0.18
AGATTATG | 0.222
ACACCCGG | -0.295
GGCATCAA | -0.144
CCATGCGG | -0.273

Set 3 — target: CCNB2, cyclin fold, Cln2 fusion (human); technique: yeast growth competition, sequencing; matrix: yeast; setting: strong parent motif; relative to: not given; reading: higher = stronger binding
Starting sequence: PKMYT1 docking peptide (human); SFEPRNLLSLFED; partner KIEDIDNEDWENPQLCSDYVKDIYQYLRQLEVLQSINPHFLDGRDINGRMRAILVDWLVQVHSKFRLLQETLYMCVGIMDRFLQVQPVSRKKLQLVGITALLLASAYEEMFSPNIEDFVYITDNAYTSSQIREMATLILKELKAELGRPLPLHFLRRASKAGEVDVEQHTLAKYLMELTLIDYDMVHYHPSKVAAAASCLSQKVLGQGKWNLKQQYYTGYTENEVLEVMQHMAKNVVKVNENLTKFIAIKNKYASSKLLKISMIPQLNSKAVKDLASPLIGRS
Variant | normalised enrichment score
SFEPRNLLSHFED [L10H] | 0.596
SFEKRNLLSLFED [P4K] | 1.13
SFEPRNLLSLFEY [D13Y] | 0.89
SFEPRNLVSLFED [L8V] | 0.15
SFEPRNLLLLFED [S9L] | 0.778
HFEPRNLLSLFED [S1H] | 1.59

Further values, each from its own experiment
Molecule | target | test | system | setting | how to read | measurement | result
PhoQ, residues 284 288 289 292 302 303 AQGLTV | PhoP, residues 12 14 15 18 19 AGCRL (Escherichia coli, UniProt P23836) | Sort-seq, measured: YFP reporter | E. coli | PhoQ-PhoP variant library, together with: 10 µM Mg2+ | relative to: high Mg2+ state, higher = stronger signaling | fold induction | 1.37

For quick reference, copied from above (set 2):
Strand | E-score
ACACCCGG | -0.295
GGCATCAA | -0.144
CCATGCGG | -0.273
